Experimental data collected from several papers.
± marks the error that the study gave.

CO[C@H]1CC[C@H](N2C(=O)CNc3ncc(-c4ccc(C(C)(C)O)nc4)nc32)CC1 has a CL/F of 24.3 L/h (patients, plasma; 30 mg, day -1, geometric mean).
With C[C@@H](N)C1CCN(S(=O)(=O)c2cccc3cnccc23)CC1 the CL/F was 3370 L/h (healthy volunteers, fasted, plasma; oral, 250 mg).
N#CC[C@H](C1CCCC1)n1cc(-c2ncnc3[nH]ccc23)cn1 gave a CL/F of 14.4 ± 8.5 L/h/m² (children up to 12 years, plasma; oral, BSA-corrected).
For O=C(Nc1cnccc1Cl)N1CCN(Cc2ccc3c(c2)OC(F)(F)O3)CC1, the CL/F was 6.98 L/h (healthy young men, plasma; oral, 75 mg once daily, day 10).
The CL/F of O=C(c1cccnc1-c1ccncc1)N1CCC(O)(Cc2ccccc2)CC1 is reported as 120 L/h (healthy Japanese adults, plasma; 1200 mg single dose).
The CL/F of Cn1cncc1-c1c(F)cncc1NC(=O)c1c(N)nn2cc(F)cnc12 is reported as 55.7 L/h (population PK model; patients with solid tumours; oral).
OC[C@H]1O[C@@H](c2ccc(F)c(Cc3cc4ccccc4s3)c2)[C@H](O)[C@@H](O)[C@@H]1O gave a CL/F of 10.3 ± 2 L/h (Japanese type 2 diabetes patients; oral, 25 mg/day, day 14).
CCCCCCCCCCCCCCCC(=O)N[C@@H](CCC(=O)NCCCC[C@@H]1NC(=O)[C@H]([C@@H](C)CC)NC(=O)[C@@H](NC(=O)[C@@H]2CCCN2C(=O)[C@H](Cc2ccccc2)NC(=O)[C@H](Cc2c[nH]cn2)NC(=O)[C@@H](NC(=O)[C@H](CC(=O)O)NC(=O)CC(C)C)[C@@H](C)O)CSSC[C@@H](C(=O)N[C@@H](CCCCN)C(N)=O)NC(=O)CNC(=O)[C@H](CCCCN)NC(=O)[C@H](CO)NC(=O)[C@H](CCCNC(=N)N)NC(=O)[C@@H]2CCCN2C(=O)[C@H](CCC(=O)O)NC(=O)[C@H](Cc2ccccc2)NC1=O)C(=O)O has a CL/F of 0.979 ± 0.245 L/h (healthy volunteers, plasma; subcutaneous, 20 mg single, lyophilised formulation).

Repeated from above:
The CL/F of O=C(c1cccnc1-c1ccncc1)N1CCC(O)(Cc2ccccc2)CC1 is reported as 120 L/h (healthy Japanese adults, plasma; 1200 mg single dose).
